Published values pooled from the literature.
Lines come from different studies, so protocols differ. Values joined by “and” are separate records of one study, mostly repeats; a detail may differ. ± gives the spread as reported. In brackets after ≈: the same amount, converted by molar mass.
Organism: Klebsiella pneumoniae

SMILES | test | system | setting | quantity | value
CN(C)S(=O)(=O)c1ccc(S(=O)(=O)N2CCC(n3c(=O)[nH]c4ccccc43)CC2)cc1 |  | ATCC 700603, mouse lung infection model, lung | 6 mg/kg, 24 h | lung bacterial burden | 5.35 log CFU and 6.56 log CFU and 5.86 log CFU and 5.84 log CFU and 6.22 log CFU
c1ccc(CN2CCOCCOCCN(CCCCCCCCN3CCOCCOCCN(CCCCCCCCN4CCOCCOCCN(Cc5ccccc5)CCOCCOCC4)CCOCCOCC3)CCOCCOCC2)cc1 |  | ATCC BAA-2146 | quarter MIC, together with: tetracycline | tetracycline MIC | 250 ± 50 µM
CC1(C)[C@H](NC(=O)/C(=N\OCCN)c2nsc(N)n2)C(=O)N1OS(=O)(=O)O | agar dilution | ATCC 700603, ESBL-producing |  | MIC | > 64 µg/mL
CC[C@H](C)CCCCC(=O)N[C@@H](CCN)C(=O)N[C@H](C(=O)N[C@@H](CCN)C(=O)N[C@H]1CCNC(=O)[C@H]([C@@H](C)O)NC(=O)[C@H](CCN)NC(=O)[C@H](CCN)NC(=O)[C@H](CC(C)C)NC(=O)[C@@H](CC(C)C)NC(=O)[C@H](CCN)NC1=O)[C@@H](C)O |  | BAA-2784, BALB/c mouse peritonitis, spleen | dose not given | bacterial load | 8.3 log CFU and 8.38 log CFU and 8.56 log CFU and 7.68 log CFU
CC(C)C[C@H](NC(=O)[C@H](Cc1ccc(O)cc1)NC(=O)[C@@H]1CCCN1C(=O)[C@H](CCCNC(=N)N)NC(=O)[C@@H]1CCCN1C(=O)[C@H](CCCCN)NC(=O)[C@H](CC(=O)O)NC(=O)[C@@H]1CCCN1C(=O)[C@H](CCCNC(=N)N)NC(=O)C1(N)CCCCC1)C(=O)N1CCC[C@H]1C(=O)N[C@@H](CCCNC(=N)N)C(=O)N1CCC[C@H]1C(=O)N[C@@H](CCCNC(=N)N)C(=O)N1CCC[C@H]1C(=O)N1CCC[C@H]1C(=O)N[C@@H](CCCNC(=N)N)C(=O)N1CCC[C@H]1C(=O)N[C@H](C(=O)N[C@@H](CCCNC(=N)N)C(=O)N[C@@H](CSc1c(F)c(F)c(-c2c(F)c(F)c(SC[C@H](NC(=O)[C@H](CCCNC(=N)N)NC(=O)[C@@H](NC(=O)[C@@H]3CCCN3C(=O)[C@H](CCCNC(=N)N)NC(=O)[C@@H]3CCCN3C(=O)[C@@H]3CCCN3C(=O)[C@H](CCCNC(=N)N)NC(=O)[C@@H]3CCCN3C(=O)[C@H](CCCNC(=N)N)NC(=O)[C@@H]3CCCN3C(=O)[C@H](CC(C)C)NC(=O)[C@H](Cc3ccc(O)cc3)NC(=O)[C@@H]3CCCN3C(=O)[C@H](CCCNC(=N)N)NC(=O)[C@@H]3CCCN3C(=O)[C@H](CCCCN)NC(=O)[C@H](CC(=O)O)NC(=O)[C@@H]3CCCN3C(=O)[C@H](CCCNC(=N)N)NC(=O)C3(N)CCCCC3)C(C)C)C(=O)NN)c(F)c2F)c(F)c1F)C(=O)NN)C(C)C | membrane disruption, propidium iodide uptake | 13883 | 90 min, 37 °C | MDC | 4.2 ± 0.1 µg/mL
c1ccc(CN2CCOCCOCCN(CCCCCCCCCCCCCCN3CCOCCOCCN(CCCCCCCCCCCCCCN4CCOCCOCCN(Cc5ccccc5)CCOCCOCC4)CCOCCOCC3)CCOCCOCC2)cc1 | checkerboard | ATCC BAA-2146 | half MIC, together with: tetracycline | FIC index | 0.56
CC(C)C[C@H](NC(=O)[C@H](Cc1ccc(O)cc1)NC(=O)[C@@H]1CCCN1C(=O)[C@H](CCCNC(=N)N)NC(=O)[C@@H]1CCCN1C(=O)[C@H](CCCCN)NC(=O)[C@H](CC(=O)O)NC(=O)[C@@H]1CCCN1C(=O)[C@H](CCCNC(=N)N)NC(=O)C1(N)CCCCC1)C(=O)N1CCC[C@H]1C(=O)N[C@@H](CCCNC(=N)N)C(=O)N1CCC[C@H]1C(=O)N[C@@H](CCCNC(=N)N)C(=O)N1CCC[C@H]1C(=O)N1CCC[C@H]1C(=O)N[C@@H](CCCNC(=N)N)C(=O)N1CCC[C@H]1C(=O)N[C@H](C(=O)N[C@@H](CCCNC(=N)N)C(=O)N[C@@H](CSCc1ccc(CSC[C@H](NC(=O)[C@H](CCCNC(=N)N)NC(=O)[C@@H](NC(=O)[C@@H]2CCCN2C(=O)[C@H](CCCNC(=N)N)NC(=O)[C@@H]2CCCN2C(=O)[C@@H]2CCCN2C(=O)[C@H](CCCNC(=N)N)NC(=O)[C@@H]2CCCN2C(=O)[C@H](CCCNC(=N)N)NC(=O)[C@@H]2CCCN2C(=O)[C@H](CC(C)C)NC(=O)[C@H](Cc2ccc(O)cc2)NC(=O)[C@@H]2CCCN2C(=O)[C@H](CCCNC(=N)N)NC(=O)[C@@H]2CCCN2C(=O)[C@H](CCCCN)NC(=O)[C@H](CC(=O)O)NC(=O)[C@@H]2CCCN2C(=O)[C@H](CCCNC(=N)N)NC(=O)C2(N)CCCCC2)C(C)C)C(=O)NN)cc1)C(=O)NN)C(C)C | membrane disruption, propidium iodide uptake | 13883 | 90 min, 37 °C | MDC | 17.5 ± 0.1 µg/mL
c1ccc(CN2CCOCCOCCN(CCCCCCCCCCN3CCOCCOCCN(CCCCCCCCCCN4CCOCCOCCN(Cc5ccccc5)CCOCCOCC4)CCOCCOCC3)CCOCCOCC2)cc1 | checkerboard | ATCC BAA-2146 | quarter MIC, together with: tetracycline | FIC index | 0.58
CC(C)C[C@H](NC(=O)[C@H](Cc1ccc(O)cc1)NC(=O)[C@@H]1CCCN1C(=O)[C@H](CCCNC(=N)N)NC(=O)[C@@H]1CCCN1C(=O)[C@H](CCCCN)NC(=O)[C@H](CC(=O)O)NC(=O)[C@@H]1CCCN1C(=O)[C@H](CCCNC(=N)N)NC(=O)C1(N)CCCCC1)C(=O)N1CCC[C@H]1C(=O)N[C@@H](CCCNC(=N)N)C(=O)N1CCC[C@H]1C(=O)N[C@@H](CCCNC(=N)N)C(=O)N1CCC[C@H]1C(=O)N1CCC[C@H]1C(=O)N[C@@H](CCCNC(=N)N)C(=O)N1CCC[C@H]1C(=O)N[C@H](C(=O)N[C@@H](CCCNC(=N)N)C(=O)N[C@@H](CSCc1cccc(CSC[C@H](NC(=O)[C@H](CCCNC(=N)N)NC(=O)[C@@H](NC(=O)[C@@H]2CCCN2C(=O)[C@H](CCCNC(=N)N)NC(=O)[C@@H]2CCCN2C(=O)[C@@H]2CCCN2C(=O)[C@H](CCCNC(=N)N)NC(=O)[C@@H]2CCCN2C(=O)[C@H](CCCNC(=N)N)NC(=O)[C@@H]2CCCN2C(=O)[C@H](CC(C)C)NC(=O)[C@H](Cc2ccc(O)cc2)NC(=O)[C@@H]2CCCN2C(=O)[C@H](CCCNC(=N)N)NC(=O)[C@@H]2CCCN2C(=O)[C@H](CCCCN)NC(=O)[C@H](CC(=O)O)NC(=O)[C@@H]2CCCN2C(=O)[C@H](CCCNC(=N)N)NC(=O)C2(N)CCCCC2)C(C)C)C(=O)NN)c1)C(=O)NN)C(C)C | membrane disruption, propidium iodide uptake | 13883 | 90 min, 37 °C | MDC | 32.7 ± 1.4 µg/mL
CC1(C)[C@H](NC(=O)/C(=N\OC2(C(=O)O)CCCCC2)c2csc(N)n2)C(=O)N1OS(=O)(=O)O | agar dilution | 16-14, ESBL-producing |  | MIC | 2 µg/mL (≈ 3.96 µM)

For quick reference, copied from above:
SMILES | test | system | setting | quantity | value
CC(C)C[C@H](NC(=O)[C@H](Cc1ccc(O)cc1)NC(=O)[C@@H]1CCCN1C(=O)[C@H](CCCNC(=N)N)NC(=O)[C@@H]1CCCN1C(=O)[C@H](CCCCN)NC(=O)[C@H](CC(=O)O)NC(=O)[C@@H]1CCCN1C(=O)[C@H](CCCNC(=N)N)NC(=O)C1(N)CCCCC1)C(=O)N1CCC[C@H]1C(=O)N[C@@H](CCCNC(=N)N)C(=O)N1CCC[C@H]1C(=O)N[C@@H](CCCNC(=N)N)C(=O)N1CCC[C@H]1C(=O)N1CCC[C@H]1C(=O)N[C@@H](CCCNC(=N)N)C(=O)N1CCC[C@H]1C(=O)N[C@H](C(=O)N[C@@H](CCCNC(=N)N)C(=O)N[C@@H](CSCc1ccc(CSC[C@H](NC(=O)[C@H](CCCNC(=N)N)NC(=O)[C@@H](NC(=O)[C@@H]2CCCN2C(=O)[C@H](CCCNC(=N)N)NC(=O)[C@@H]2CCCN2C(=O)[C@@H]2CCCN2C(=O)[C@H](CCCNC(=N)N)NC(=O)[C@@H]2CCCN2C(=O)[C@H](CCCNC(=N)N)NC(=O)[C@@H]2CCCN2C(=O)[C@H](CC(C)C)NC(=O)[C@H](Cc2ccc(O)cc2)NC(=O)[C@@H]2CCCN2C(=O)[C@H](CCCNC(=N)N)NC(=O)[C@@H]2CCCN2C(=O)[C@H](CCCCN)NC(=O)[C@H](CC(=O)O)NC(=O)[C@@H]2CCCN2C(=O)[C@H](CCCNC(=N)N)NC(=O)C2(N)CCCCC2)C(C)C)C(=O)NN)cc1)C(=O)NN)C(C)C | membrane disruption, propidium iodide uptake | 13883 | 90 min, 37 °C | MDC | 17.5 ± 0.1 µg/mL
